# Measured values of several laboratories.
# Protocols differ between the studies behind these lines. ± gives the spread as reported.
SMILES,assay,test system,conditions,how to read,quantity,result
CO[C@H]1/C=C/O[C@@]2(C)Oc3c(C)c(O)c4c(c3C2=O)C2=NC3(CCN(CC(C)C)CC3)NC2=C(NC(=O)/C(C)=C\C=C\[C@H](C)[C@H](O)[C@@H](C)[C@@H](O)[C@@H](C)[C@H](OC(=O)c2cccnc2)[C@@H]1C)C4=O,,"CD-1 mice, plasma",intravenous,relative to: metabolite AUC over parent AUC,deacylated metabolite exposure,0.2%
NC(=O)c1c(F)ccc(OCc2nc3cc(Cl)cnc3s2)c1F,,"mouse, plasma","intravenous, 3 mg/kg",,C0,3700 ng/mL
CC[C@@H](C)[C@@H](NC(=O)[C@@H](C)NC(=O)[C@@H](CCCCN)NC(=O)[C@@H](CC(C)C)NC(=O)[C@@H](CC(C)C)NC(=O)[C@H](NC(=O)[C@@H](CCCCN)NC(=O)[C@@H](CC(C)C)NC(=O)[C@@H](CCCCN)NC(=O)[C@@H](CCCCN)NC(=O)[C@@H](CCCCN)NC(=O)[C@@H](CCCCN)NC(=O)[C@@H](C)NC(=O)[C@@H](CCCCN)NC(=O)[C@@H](CO)NC(=O)[C@@H](Cc1ccccc1)NC(=O)[C@H](NC(=O)[C@@H](CCCCN)NC(=O)[C@@H](CC(C)C)NC(=O)[C@@H](Cc1ccccc1)NC(=O)[C@@H](CO)NC(=O)[C@@H](CCCCN)NC(=O)[C@@H](Cc1c[nH]c2ccccc12)NC(=O)[C@@H](CCCCN)NC(C)=O)[C@H](C)O)[C@H](C)O)C(=O)N[C@H](CO)C(=O)N[C@H](CCCCN)C(N)=O,circular dichroism,aqueous buffer,"pH 7.0, 5 °C",relative to: reference peptide in TFE,helical content,5%
CC(C)CCCC(C)CCCC(C)CCOC1OC[C@H](O)[C@H](O)[C@H]1O (some centres unmarked),drop shape analysis,water/n-octane,"solubility limit, 100 s, room temperature",,interfacial tension,21.9 mN/m
COc1cc2c(cc1OC)CN(CCCCn1ccc3cc(OCC[18F])ccc31)C2,,"male CD-1 mouse, kidney","intravenous, 30 min",,tracer uptake,8.75 %ID/g
CCCCCCCCCCCCCCCC(=O)N[C@@H](CCC(=O)NCCCC[C@H](NC(=O)[C@H](C)NC(=O)[C@H](C)NC(=O)[C@H](CCC(N)=O)NC(=O)CNC(=O)[C@H](CCC(=O)O)NC(=O)[C@H](CC(C)C)NC(=O)[C@H](Cc1ccc(O)cc1)NC(=O)[C@H](CO)NC(=O)[C@H](CO)NC(=O)[C@@H](NC(=O)[C@H](CC(=O)O)NC(=O)[C@H](CO)NC(=O)[C@@H](NC(=O)[C@H](Cc1ccccc1)NC(=O)[C@@H](NC(=O)CNC(=O)[C@H](CCC(=O)O)NC(=O)[C@H](C)NC(=O)[C@@H](N)Cc1cnc[nH]1)[C@@H](C)O)[C@@H](C)O)C(C)C)C(=O)N[C@@H](CCC(=O)O)C(=O)N[C@@H](Cc1ccccc1)C(=O)N[C@H](C(=O)N[C@@H](C)C(=O)N[C@@H](Cc1c[nH]c2ccccc12)C(=O)N[C@@H](CC(C)C)C(=O)N[C@H](C(=O)N[C@@H](CCCNC(=N)N)C(=O)NCC(=O)N[C@@H](CCCNC(=N)N)C(=O)NCC(=O)O)C(C)C)[C@@H](C)CC)C(=O)O,,"healthy humans, plasma",concentration not given,relative to: compound over Victoza,AUC(0-last) ratio,112%
CC12CC3CC(C)(C1)CC(NC(=O)Nc1ccc(C(=O)N4CCCC(C(N)=O)C4)cc1)(C3)C2 (centres unmarked),,"Sprague Dawley rats, both sexes, plasma","oral, 10 mg/kg",,CL,33600 mL/h
CCC(=O)N[C@@H](C)C(=O)OCC(=O)N[C@@H](C)C(=O)O,,water,"pH 8, 37 °C",,depolymerization half-life,23.9 h
CC(C)(O)c1ncc([S@](N)(=O)=NC(=O)Nc2c3c(cc4c2CCC4)CCC3)s1,,"healthy human fasted, plasma","oral, 100 mg single dose, spray-dried dispersion",,AUC(0-inf),99400 ng·h/mL
N=C(N)NCCC[C@@H]1NC(=O)[C@H](Cc2c[nH]c3ccccc23)NC(=O)[C@@H](CC2CCCCC2)NC(=O)[C@@H]2CCCN2C(=O)[C@@H](NC(=O)CCc2ccccc2)CCCNC1=O,,"C57BL/6J mice, brain","subcutaneous, 1 mg/kg",,absorption half-life,17.7 min
NC(=O)[C@H](Cc1ccccc1)N[11C](=O)OCc1ccccc1,,"male Wistar rat, brain and spinal cord","intravenous, 27.3 MBq",,intact compound,> 95%
CC(C)c1cnc(-c2cc(Cl)ccc2F)cc1Nc1ccncc1C(=O)NC(CO)CO,"monotherapy, item: nausea",human patients,"oral, dose not given, grade 5, phase I A",,patients with treatment-related adverse event,0%
CCCC[C@H](NC(=O)CNC(=O)CNC(=O)CN1CCN(CC(=O)O)CCN(CC(=O)O)CCN(CC(=O)O)CC1)C(=O)N[C@H]1CC(=O)NCCCC[C@@H](C(N)=O)NC(=O)[C@H](Cc2c[nH]c3ccccc23)NC(=O)[C@H](CCCNC(=N)N)NC(=O)[C@@H](Cc2ccccc2)NC(=O)[C@H](Cc2c[nH]cn2)NC1=O [copper-64 labelled],,"female C57 mouse, B16/F1 melanoma","intravenous, 0.037 MBq, 2 h",relative to: tumour over blood,uptake ratio,5.05
O=C([O-])c1cccc(CN(CCN(Cc2cn(Cc3ccccc3)nn2)Cc2cccc(C(=O)[O-])n2)Cc2cn(Cc3ccccc3)nn2)n1.[64Cu+2],,"mouse, liver","intravenous, 15 min",,tracer uptake,17.7 %ID/g
COc1ccc(NC(=O)[C@H](CCCCN)NC(=O)c2cc(NC(=O)[C@H](CCCCN)NC(=O)c3cc(NC(=O)[C@H](CCCCN)NC(=O)c4cc(NC(C)=O)ccc4OC)ccc3OC)ccc2OC)cc1C(N)=O,UV-vis λmax shift,TBS,"pH 7.4, monomer-hexamer fit, together with: NaCl 0.15 M",,association midpoint concentration,0.07 mM
NC[C@@H](C(=O)Nc1ccc(-c2cn[nH]c2)cc1)c1ccccc1,OECD 405 eye irritation,"New Zealand White rabbit, eye","topical, 0.1%, 97 h (day 5), scale 0 to 4",direction not given,chemosis score,0
CCCC[C@H](NC(=O)CNC(=O)CNC(=O)CN1CCN(CC(=O)O)CCN(CC(=O)O)CC1)C(=O)N[C@H]1CC(=O)NCCCC[C@@H](C(N)=O)NC(=O)[C@H](Cc2c[nH]c3ccccc23)NC(=O)[C@H](CCCNC(=N)N)NC(=O)[C@@H](Cc2ccccc2)NC(=O)[C@H](Cc2c[nH]cn2)NC1=O [gallium-67 labelled],,"female C57 mice, B16/F1 melanoma","intravenous, 0.037 MBq, 24 h",relative to: tumour over kidney,tumour to tissue ratio,2.9
CCc1cc(Nc2nc(-c3ccc(-n4cnc(C)c4)c(F)c3)cs2)c(C)cc1C,,"human, both sexes, plasma","oral, 100 mg, day 1, multiple dose, geometric mean",,AUC(0-last),1760 ng·h/mL
O=c1[nH]c(=O)n(C2OC(CO)C(O)C2O)cc1-n1nnc2c1CCC1C(CO)C1CC2 (mixture of isomers),frequency-domain fluorometry,methanol,,,fluorescence lifetime τ3,5.7 ns
COc1cc(N2CCN(C(=O)C3CCCN3)CC2)ccc1Nc1ncc(Cl)c(Nc2ccccc2P(C)(C)=O)n1 (centres unmarked),,"mouse, plasma","oral, 10 mg/kg",,CL/F,31.5 mL/min/kg
CCCCCc1cn(CCCCCCCCCCCOP(=O)([O-])OCC[N+](C)(C)C)nn1,hemolysis,human red blood cells,"1 h, 37 °C",,HC50,> 100 µM
CCCC[C@H](NC(C)=O)C(=O)N[C@H]1CC(=O)NCCCC[C@@H](C(=O)N[C@@H](C(=O)N2CCC[C@@H]2C(N)=O)C(C)C)NC(=O)[C@H](Cc2c[nH]c3ccccc23)NC(=O)[C@H](CCCN=C(N)N)NC(=O)[C@@H](Cc2ccc3ccccc3c2)NC(=O)[C@@H]2CCCN2C1=O,,"Beagle dog, both sexes, plasma","subcutaneous, once daily, 2.25 mg/kg, day 1",,AUC,30500 ± 2700 ng·h/mL
NCCCC(=O)OCC(=O)c1ccc(O)c(C(F)(F)F)c1,LC-MS/MS,1-octanol,concentration not given,,photolysis quantum yield,0.1
NCC(=O)NCC(=O)NCC(=O)NCC(=O)NCC(=O)NCC(=O)NCCCC[C@H](NC(=O)[C@@H]1CCCN1C(=O)[C@@H]1CSSCCC(=O)N[C@@H](Cc2ccc(O)cc2)C(=O)N[C@@H](Cc2ccccc2)C(=O)N[C@@H](CCCC(N)=O)C(=O)N[C@@H](CC(N)=O)C(=O)N1)C(=O)NCC(N)=O,,male Sprague Dawley rats,"sc, single dose",,adverse effect level (ataxia),3.84 mg/kg
O=C(Cc1ccc2ccccc2c1)N[C@H](Cc1ccccc1)C(=O)N[C@H](Cc1ccccc1)C(=O)N[C@H](Cc1ccc(OP(=O)(O)O)cc1)C(=O)N[C@H](Cc1ccc(OP(=O)(O)O)cc1)C(=O)O,"substrate, rheology",hydrogel,"0.5 wt%, together with: alkaline phosphatase 0.05 U/mL",,gelation time,3.7 h
COC(=O)c1ccc(CCc2cc3cc4nc(c(OC)c5[nH]c(cc6nc(cc2[nH]3)CC6(C)C)cc5CCCNC(=O)OC(C)(C)C)C(=O)C4(C)C)cc1,,DMF,room temperature,,kf^−1,16 ns
